Assay results from different studies.
Compare with care: the assays were run in different laboratories. Values joined by “and” are separate records of one study, mostly repeats; a detail may differ. ± gives the spread as reported.

SMILES = CCN1CCN(c2cc(N3CCN(CC)CC3)nc(NCCNc3ccnc4cc(Cl)ccc34)n2)CC1; target or system = COS-7; setting = 30 µM, 24 h, 0.1% DMSO, unit not given; scale = baseline: vehicle control; measurement = confluence; result = 0.3 ± 0.06
SMILES = Cc1c2oc3c(C)ccc(C(=O)N[C@@H]4C(=O)N[C@H](C(C)C)C(=O)N5CCC[C@H]5C(=O)N(C)CC(=O)N(C)[C@@H](C(C)C)C(=O)O[C@@H]4C)c3nc-2c(C(=O)N[C@@H]2C(=O)N[C@H](C(C)C)C(=O)N3CCC[C@H]3C(=O)N(C)CC(=O)N(C)[C@@H](C(C)C)C(=O)O[C@@H]2C)c(N)c1=O; assay = LC-MS; test system = children with cancer, plasma; setting = dose not given, 2 h; measurement = median plasma concentration; result = 4.8 µg/L
SMILES = O=C(O)CCc1nc(-c2ccccc2)c(-c2ccccc2)o1; target or system = COS-7; assay = WST-8; setting = 50 µM, 24 h, 0.1% DMSO, unit not given; scale = baseline: vehicle control; measurement = metabolic activity; result = 0.87 ± 0.2
SMILES = COc1c(O)c(C)cc2c1C(=O)c1c(ccc(O)c1O)C2=O; target or system = HepaRG co-cultured with HK-2; assay = MTT; setting = 33.33 µM, 48 h; scale = baseline: untreated control; measurement = cell viability; result = 44.2 ± 2.65%
SMILES = Cc1c(-c2ccc(N3CCc4cccc(C(=O)Nc5nc6ccccc6s5)c4C3)nc2C(=O)O)cnn1CC12CC3(C)CC(C)(C1)CC(OCCNCC[C@H](O)CO)(C3)C2; test system = beagle dog, male, anaesthetised; setting = intravenous infusion, 0.3 mg/kg/min, 90 min; scale = baseline: vehicle; measurement = mean arterial pressure change; result = -30%
SMILES = COc1ccc2c3c([nH]c2c1)[C@H](CC(C)C)N1C(=O)[C@H](CC(=O)NC(C)C)NC(=O)[C@@H]1C3; test system = wild-type mouse, male, serum; setting = oral, 100 mg/kg, 24 h; measurement = serum concentration; result = 11 nM and 33.7 nM and 11.9 nM and 20.2 nM
SMILES = Cc1c(C(=O)O)ccc2c3n(nc12)[C@@H]1[C@H](C3)N(CC2CC2)[C@@]2(C(=O)Nc3cc(Cl)ccc32)[C@H]1c1cccc(Cl)c1F; test system = human patients phase Ia; setting = oral, dose not given, grade ≥3, all patients; measurement = back pain incidence; result = 0%
SMILES = C[C@H](O)C(=O)C1=Nc2c(nc(N)[nH]c2=O)NC1; test system = healthy human volunteers; setting = oral, 20 mg/kg, 4 days, monotherapy; scale = baseline: subjects; measurement = drug-related TEAE incidence; result = 0%
SMILES = Cc1cccc(CNC(=O)c2cn(CCNC(=O)c3ccccc3Sc3c([N+](=O)[O-])ncn3C)c3cc4c(cc3c2=O)OC(F)(F)O4)n1; test system = Sprague-Dawley rat, male, plasma; setting = intramuscular, 3 mg/kg of parent drug; measurement = Tmax; result = 4.98 min
SMILES = CNC(=O)c1ccc(-c2cnc3ncc(Cc4ccc5ncccc5c4)n3n2)cc1F; assay = refers to: Nausea; test system = gastric cancer patients; setting = oral, 600 mg twice daily, expansion cohort, grade 3-4; measurement = patients with adverse event; result = 11%
SMILES = O=C(COc1ccc(Cl)cc1)NC12CC(c3nnc([C@H]4C[C@@H](OC(F)(F)F)C4)o3)(C1)C2; test system = human both sexes; setting = oral, 100 mg single dose; measurement = postural dizziness participants; result = 50%
SMILES = O=C(O)/C=C/c1ccc(OS(=O)(=O)O)cc1; test system = human plasma; setting = median; measurement = plasma concentration; result = 77.1 nM
SMILES = Cc1nc2ccc(OCc3ccc(C(F)(F)F)cc3)cc2[nH]1; test system = male Balb/c mice, brain; setting = oral, 10 mg/kg, 4 h; scale = baseline: tissue over plasma; measurement = tissue/plasma ratio; result = 4.5 ± 0.6
SMILES = NC[C@@H]1O[C@H](O[C@H]2[C@@H](O)[C@H](O[C@@H]3[C@@H](O)[C@H](N)C[C@H](N)[C@H]3O[C@H]3O[C@H](CO)[C@@H](O)[C@H](O)[C@H]3N)O[C@@H]2CO)[C@H](N)[C@@H](O)[C@@H]1O; test system = NSG mice; setting = dose not given, day 1 of treatment; measurement = body weight; result = 21.3 g and 23.4 g and 22.4 g and 21.9 g and 22.5 g and 20.4 g and 22.1 g and 23.5 g
SMILES = O=C(Nc1nc2cccc(-c3ccc(CN4CCS(=O)(=O)CC4)cc3)n2n1)C1CC1; assay = refers to: blood triglycerides increased; test system = rheumatoid arthritis patients; setting = oral, 30 mg once daily, 4 weeks, any relatedness; measurement = treatment-emergent adverse events; result = 5.9%
SMILES = CCOc1c([C@H](C)n2nc(C)c3c(N)ncnc32)cc(Cl)c(F)c1[C@@H]1CNC(=O)C1; assay = refers to: QTcF change above 60 ms; test system = previously treated B-cell malignancy; setting = oral, 10 mg once daily, baseline QTcF ≤450 ms; scale = baseline: baseline; measurement = ECG observations; result = 0%
SMILES = O=C(O)c1cc(O)cc(O)c1; test system = human plasma; setting = mean, both sexes; measurement = plasma concentration; result = 2570 nM
SMILES = CCCCOc1nc(N)c2c(n1)N(Cc1cccc(CN3CCCC3)c1)CC(=O)N2; test system = human; setting = oral, 2 mg, drug interaction trial; measurement = drug-related TEAE; result = 6.7%
SMILES = CCc1cc(C(=O)NC)c2nccc(N3CCc4c(cc(Cn5ccnc5)cc4-c4cn(C)nc4C(F)(F)F)C3=O)c2c1; test system = Sprague Dawley rats; setting = oral, 100 mg/kg once daily, 7 days; scale = baseline: vehicle; measurement = serum HDL change; result = 2.5%
SMILES = O=C(O)CCC(=O)O.[2H]C([2H])([2H])Oc1cc(C)c2[nH]ccc2c1CN1CC[C@@H](C2CC2)C[C@H]1c1ccc(C(=O)O)cc1; assay = multiple ascending dose; test system = healthy Chinese subjects; setting = 300 mg once daily; measurement = subjects with elevated cholesterol TEAE; result = 0%
SMILES = COc1c(O)c(C)cc2c1C(=O)c1c(cc(O)c(O)c1O)C2=O; target or system = HepaRG co-cultured with HK-2; assay = MTT; setting = 66.67 µM, 48 h; scale = baseline: untreated control; measurement = cell viability; result = 75.1 ± 11.8%
SMILES = CCn1cc(C(=O)O)c(=O)c2cc(F)c(N3CCNCC3)cc21; assay = starch gel membrane permeability; test system = Gram-negative envelope surrogate; setting = 200 µM, 10 min, pH 7.4; measurement = amount permeated; result = 0.92 nmol
SMILES = FC(F)(F)c1ccc(CNc2ccc(Cc3c[nH]c4ncc(Cl)cc34)cn2)cn1; assay = refers to: Arthralgia; test system = patients with advanced solid tumours, all cohorts; setting = oral, 1000 mg/day, any grade; measurement = treatment-related adverse events; result = 4%
SMILES = CC1CCNc2c(C(=O)NC/C=C/S(C)(=O)=O)cccc21 (stereo not drawn); test system = uninfected mouse, serum; setting = 300 mg/kg; measurement = serum CREAT; result = 0.36 mg/dL and 0.43 mg/dL
